# Published values gathered from unrelated publications.
# Protocols differ between the studies behind these lines. pIC50: −log10 of the molar value.
# Sequence of UniProt Q9BYT3 (whole entry, looked up): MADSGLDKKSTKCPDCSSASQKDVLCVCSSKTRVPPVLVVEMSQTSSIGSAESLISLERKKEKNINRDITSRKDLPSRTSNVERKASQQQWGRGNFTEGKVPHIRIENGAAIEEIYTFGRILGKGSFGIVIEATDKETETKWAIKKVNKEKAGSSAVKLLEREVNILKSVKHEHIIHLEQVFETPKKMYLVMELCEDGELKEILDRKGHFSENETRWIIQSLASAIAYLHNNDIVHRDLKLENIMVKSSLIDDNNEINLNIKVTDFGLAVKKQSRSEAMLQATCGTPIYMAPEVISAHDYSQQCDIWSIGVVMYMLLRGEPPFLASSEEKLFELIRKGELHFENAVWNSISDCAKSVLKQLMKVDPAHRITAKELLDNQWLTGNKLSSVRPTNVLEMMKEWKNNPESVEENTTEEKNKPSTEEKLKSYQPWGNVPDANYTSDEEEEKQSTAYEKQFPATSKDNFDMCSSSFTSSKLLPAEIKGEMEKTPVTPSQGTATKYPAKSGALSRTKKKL
# Sequence of UniProt P29597 (whole entry, looked up): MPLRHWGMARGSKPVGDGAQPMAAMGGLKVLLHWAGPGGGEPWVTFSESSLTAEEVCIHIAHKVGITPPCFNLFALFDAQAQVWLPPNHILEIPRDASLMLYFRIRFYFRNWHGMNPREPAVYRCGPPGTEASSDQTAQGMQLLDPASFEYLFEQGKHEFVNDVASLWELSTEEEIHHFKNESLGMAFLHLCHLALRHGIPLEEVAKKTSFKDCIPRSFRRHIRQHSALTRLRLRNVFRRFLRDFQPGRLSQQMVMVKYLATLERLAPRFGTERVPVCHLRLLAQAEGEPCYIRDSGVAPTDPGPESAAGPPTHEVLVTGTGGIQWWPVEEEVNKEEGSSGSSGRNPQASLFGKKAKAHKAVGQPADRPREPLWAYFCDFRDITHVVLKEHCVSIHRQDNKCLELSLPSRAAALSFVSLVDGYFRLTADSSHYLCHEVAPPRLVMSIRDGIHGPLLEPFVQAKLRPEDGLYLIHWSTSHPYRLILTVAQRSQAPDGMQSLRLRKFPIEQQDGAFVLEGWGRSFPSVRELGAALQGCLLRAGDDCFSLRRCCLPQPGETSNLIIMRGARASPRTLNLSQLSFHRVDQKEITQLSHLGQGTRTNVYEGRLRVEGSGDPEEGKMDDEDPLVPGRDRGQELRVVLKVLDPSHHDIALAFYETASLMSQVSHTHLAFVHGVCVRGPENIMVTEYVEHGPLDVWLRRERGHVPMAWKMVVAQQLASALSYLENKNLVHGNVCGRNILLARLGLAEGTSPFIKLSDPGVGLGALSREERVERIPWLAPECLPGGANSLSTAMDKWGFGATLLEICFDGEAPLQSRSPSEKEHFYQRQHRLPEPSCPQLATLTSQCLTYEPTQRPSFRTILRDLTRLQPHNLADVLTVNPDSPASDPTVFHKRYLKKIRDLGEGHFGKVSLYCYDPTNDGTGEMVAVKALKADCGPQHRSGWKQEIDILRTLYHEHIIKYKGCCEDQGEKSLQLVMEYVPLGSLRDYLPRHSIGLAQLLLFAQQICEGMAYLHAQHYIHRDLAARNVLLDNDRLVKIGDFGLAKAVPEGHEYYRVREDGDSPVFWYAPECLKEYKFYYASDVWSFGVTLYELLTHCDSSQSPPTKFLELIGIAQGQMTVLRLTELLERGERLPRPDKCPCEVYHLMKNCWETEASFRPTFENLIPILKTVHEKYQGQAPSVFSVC
# Sequence of UniProt P53671 (whole entry, looked up): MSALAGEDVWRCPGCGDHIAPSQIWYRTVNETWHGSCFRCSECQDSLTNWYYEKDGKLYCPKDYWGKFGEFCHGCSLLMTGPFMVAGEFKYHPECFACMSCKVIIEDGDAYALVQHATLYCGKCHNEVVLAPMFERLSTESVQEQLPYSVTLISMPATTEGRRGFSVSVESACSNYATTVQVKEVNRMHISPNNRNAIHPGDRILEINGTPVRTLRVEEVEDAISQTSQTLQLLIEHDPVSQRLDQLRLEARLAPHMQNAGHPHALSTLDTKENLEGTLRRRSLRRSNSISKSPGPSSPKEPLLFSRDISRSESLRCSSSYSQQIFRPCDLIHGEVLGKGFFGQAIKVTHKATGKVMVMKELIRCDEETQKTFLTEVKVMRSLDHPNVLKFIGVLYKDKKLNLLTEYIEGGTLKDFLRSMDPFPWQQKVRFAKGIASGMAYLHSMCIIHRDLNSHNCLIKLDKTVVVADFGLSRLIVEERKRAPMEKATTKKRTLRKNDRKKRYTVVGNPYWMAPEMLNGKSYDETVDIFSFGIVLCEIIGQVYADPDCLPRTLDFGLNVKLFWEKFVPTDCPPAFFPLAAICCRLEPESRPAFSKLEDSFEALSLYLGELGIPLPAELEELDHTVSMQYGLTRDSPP
Structure (SMILES),tested on,assay,test system,conditions,measurement,result
O=C1CCP(=[Se])(c2ccccc2)CC1,SW480,"cell growth or viability, MTT",,72 h,pIC50,4.06
CC(=N)S,THLE-2,"cell growth or viability, MTT",,,pIC50,3.88
COc1cc2cc(c1Cl)N(C)C(=O)C[C@H](OC(=O)[C@H](C)N(C)C(=O)CCS)[C@]1(C)O[C@H]1[C@H](C)[C@@H]1C[C@@](O)(NC(=O)O1)[C@H](OC)/C=C/C=C(\C)C2,MCF7,"cell growth or viability, SRB",,48 h,pIC50,7.28
N.N.[Cl][Pt][Cl],SH-SY5Y,"cell growth or viability, MTT",,24 h,pIC50,3.89
Cc1cc(N(CCOS(C)(=O)=O)CCOS(C)(=O)=O)ccc1C=O,786-0,cell growth or viability,,,IC50,0.267 µg/mL
COC(=O)c1cc(-c2cccc(NC(=O)Nc3cccc(C(F)(F)F)c3)c2)on1,Mycobacteroides chelonae,"microbial growth, broth dilution",ATCC35752,48 h,MIC,> 64 µg/mL
COc1cc(C(=O)c2nc(-c3cccc4[nH]ccc34)c[nH]2)cc(OC)c1OC,COS-7,cell growth or viability,,,pIC50,8.38
[2H]c1c([2H])c([C@]2([2H])CCCN2C(=O)C(C)(C)Oc2ccc3cn[nH]c3c2)c([2H])c([2H])c1C([2H])([2H])[2H],"Serine/threonine-protein kinase 33 (STK33, Homo sapiens, UniProt Q9BYT3)","binding, competition with immobilised ligand",,1 µM,remaining binding,80%
N.N.[Cl][Pt][Cl],A2780cis,"cell growth or viability, MTT",,72 h,pIC50,4.93
Cc1cc(N(CCO)CCO)ccc1C(=O)O,A498,cell growth or viability,,,IC50,> 10 µg/mL
COC(=O)c1cc(-c2cccc(NC(=O)Nc3ccc(F)cc3)c2)on1,Klebsiella pneumoniae,"microbial growth, broth dilution",BAA1705,,MIC,> 64 µg/mL
COc1ccc(-c2c(-c3ccc(C#N)c(F)c3)nc(N3CCC(N)CC3)n(C)c2=O)cc1F,U2OS,"cell growth or viability, resazurin",,,pIC50,4.33
CN[C@@H]1C[C@H]2O[C@@](C)([C@@H]1OC)n1c3ccccc3c3c4c(c5c6ccccc6n2c5c31)C(=O)NC4,MP41,"cell growth or viability, ATP luminescence",,72 h,pIC50,6.57
N.N.[Cl][Pt][Cl],SW480,"cell growth or viability, MTT",,72 h,pIC50,4.98
COc1ncccc1-c1cnn2ccc(N3CCN(C(=O)OC(C)C)CC3)nc12,"LIM domain kinase 2 (LIMK2, Homo sapiens, UniProt P53671)","binding, competition with immobilised ligand",,1 µM,remaining binding,94%
S=P1(c2ccccc2)CCCCC1,SW480,"cell growth or viability, MTT",,72 h,pIC50,< 4.00
Cc1nn(C)cc1-c1nc2c(N3CCN(Cc4ccc(Cl)cc4)CC3)c(Cl)cnc2[nH]1,"Hepatocyte growth factor receptor (MET, Homo sapiens, UniProt P08581, Y1235D)","binding, competition with immobilised ligand",,1 µM,remaining binding,76%
Nc1ncc(-c2nc(N3CCOCC3)nc(N3CCOCC3)n2)c(C(F)F)n1,"Non-receptor tyrosine-protein kinase TYK2, JH1 (TYK2, Homo sapiens, UniProt P29597)","binding, competition with immobilised ligand",,10 µM,remaining binding,56%
N.N.[Cl][Pt][Cl],OCI-LY19,"cell growth or viability, ATP luminescence",,72 h,pIC50,6.74

# Repeated from above:
Structure (SMILES),tested on,assay,test system,conditions,measurement,result
N.N.[Cl][Pt][Cl],A2780cis,"cell growth or viability, MTT",,72 h,pIC50,4.93
N.N.[Cl][Pt][Cl],OCI-LY19,"cell growth or viability, ATP luminescence",,72 h,pIC50,6.74
